# Assay results pooled from the literature.
# Each line is one published result; not all experiments were run side by side.
# UniProt P53778, sequence (whole entry, looked up): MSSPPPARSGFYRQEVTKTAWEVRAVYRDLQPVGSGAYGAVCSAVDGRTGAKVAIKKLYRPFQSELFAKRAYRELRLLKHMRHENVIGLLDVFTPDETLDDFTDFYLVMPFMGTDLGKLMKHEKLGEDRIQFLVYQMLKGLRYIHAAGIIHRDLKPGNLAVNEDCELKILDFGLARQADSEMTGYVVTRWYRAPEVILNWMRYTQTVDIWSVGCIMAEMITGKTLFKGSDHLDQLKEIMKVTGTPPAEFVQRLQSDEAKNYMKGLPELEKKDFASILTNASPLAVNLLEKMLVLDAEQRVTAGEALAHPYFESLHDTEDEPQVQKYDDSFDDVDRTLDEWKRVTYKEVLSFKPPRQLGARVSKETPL
# UniProt Q8N4C8, sequence (whole entry, looked up): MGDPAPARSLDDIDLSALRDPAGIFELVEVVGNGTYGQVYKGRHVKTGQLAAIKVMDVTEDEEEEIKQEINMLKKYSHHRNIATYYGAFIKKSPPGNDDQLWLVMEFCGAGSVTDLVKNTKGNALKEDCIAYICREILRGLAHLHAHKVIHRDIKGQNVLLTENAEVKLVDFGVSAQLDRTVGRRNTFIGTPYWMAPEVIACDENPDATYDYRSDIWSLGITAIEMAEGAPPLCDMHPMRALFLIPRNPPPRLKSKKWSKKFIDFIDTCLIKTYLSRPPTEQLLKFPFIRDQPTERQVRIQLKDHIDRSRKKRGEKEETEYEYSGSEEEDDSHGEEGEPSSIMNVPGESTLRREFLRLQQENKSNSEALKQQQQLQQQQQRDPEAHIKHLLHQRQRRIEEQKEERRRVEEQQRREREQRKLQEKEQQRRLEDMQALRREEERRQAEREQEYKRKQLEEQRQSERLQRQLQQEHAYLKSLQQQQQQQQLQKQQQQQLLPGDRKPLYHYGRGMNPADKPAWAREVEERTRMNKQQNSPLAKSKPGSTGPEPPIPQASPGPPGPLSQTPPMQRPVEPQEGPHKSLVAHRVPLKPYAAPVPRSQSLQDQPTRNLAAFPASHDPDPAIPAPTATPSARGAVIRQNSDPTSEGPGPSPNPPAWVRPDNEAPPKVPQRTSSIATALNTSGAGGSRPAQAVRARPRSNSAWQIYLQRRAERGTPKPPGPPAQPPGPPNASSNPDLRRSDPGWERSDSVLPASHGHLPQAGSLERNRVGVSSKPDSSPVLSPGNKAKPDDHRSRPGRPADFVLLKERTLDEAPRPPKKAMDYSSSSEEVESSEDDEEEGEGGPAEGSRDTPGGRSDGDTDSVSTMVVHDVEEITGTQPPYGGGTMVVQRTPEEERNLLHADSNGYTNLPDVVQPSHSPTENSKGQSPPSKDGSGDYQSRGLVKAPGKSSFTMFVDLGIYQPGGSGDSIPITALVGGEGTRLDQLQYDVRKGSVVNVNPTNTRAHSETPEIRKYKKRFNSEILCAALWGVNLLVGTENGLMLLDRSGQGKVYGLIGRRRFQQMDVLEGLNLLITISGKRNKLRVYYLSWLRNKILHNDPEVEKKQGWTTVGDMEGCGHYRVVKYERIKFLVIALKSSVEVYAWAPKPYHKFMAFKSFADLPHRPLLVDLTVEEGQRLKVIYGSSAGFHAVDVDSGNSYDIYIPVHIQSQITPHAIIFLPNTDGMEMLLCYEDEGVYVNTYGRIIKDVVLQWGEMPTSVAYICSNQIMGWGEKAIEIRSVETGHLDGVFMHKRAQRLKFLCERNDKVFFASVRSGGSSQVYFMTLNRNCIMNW
# UniProt Q9UKI8, sequence (whole entry, looked up): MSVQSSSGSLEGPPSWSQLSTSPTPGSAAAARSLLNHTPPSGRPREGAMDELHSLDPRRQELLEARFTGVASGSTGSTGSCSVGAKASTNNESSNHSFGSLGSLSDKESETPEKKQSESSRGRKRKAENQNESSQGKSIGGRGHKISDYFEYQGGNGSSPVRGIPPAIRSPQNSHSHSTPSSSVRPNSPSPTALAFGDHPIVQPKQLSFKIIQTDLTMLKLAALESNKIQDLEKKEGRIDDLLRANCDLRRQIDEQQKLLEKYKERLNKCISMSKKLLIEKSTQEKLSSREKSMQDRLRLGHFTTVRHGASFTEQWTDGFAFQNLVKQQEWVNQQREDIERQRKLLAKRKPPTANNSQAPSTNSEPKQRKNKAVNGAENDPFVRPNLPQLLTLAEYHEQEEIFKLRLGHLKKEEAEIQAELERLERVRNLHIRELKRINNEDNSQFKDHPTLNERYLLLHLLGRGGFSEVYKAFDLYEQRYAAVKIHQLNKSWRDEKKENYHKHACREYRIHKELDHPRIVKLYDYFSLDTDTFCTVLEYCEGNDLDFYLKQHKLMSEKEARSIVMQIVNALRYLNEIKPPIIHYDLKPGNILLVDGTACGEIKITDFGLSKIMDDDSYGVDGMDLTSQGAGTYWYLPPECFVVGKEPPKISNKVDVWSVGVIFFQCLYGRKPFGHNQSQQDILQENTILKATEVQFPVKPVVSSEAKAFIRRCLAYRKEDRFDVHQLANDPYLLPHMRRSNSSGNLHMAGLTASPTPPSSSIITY
# UniProt O75116, sequence (whole entry, looked up): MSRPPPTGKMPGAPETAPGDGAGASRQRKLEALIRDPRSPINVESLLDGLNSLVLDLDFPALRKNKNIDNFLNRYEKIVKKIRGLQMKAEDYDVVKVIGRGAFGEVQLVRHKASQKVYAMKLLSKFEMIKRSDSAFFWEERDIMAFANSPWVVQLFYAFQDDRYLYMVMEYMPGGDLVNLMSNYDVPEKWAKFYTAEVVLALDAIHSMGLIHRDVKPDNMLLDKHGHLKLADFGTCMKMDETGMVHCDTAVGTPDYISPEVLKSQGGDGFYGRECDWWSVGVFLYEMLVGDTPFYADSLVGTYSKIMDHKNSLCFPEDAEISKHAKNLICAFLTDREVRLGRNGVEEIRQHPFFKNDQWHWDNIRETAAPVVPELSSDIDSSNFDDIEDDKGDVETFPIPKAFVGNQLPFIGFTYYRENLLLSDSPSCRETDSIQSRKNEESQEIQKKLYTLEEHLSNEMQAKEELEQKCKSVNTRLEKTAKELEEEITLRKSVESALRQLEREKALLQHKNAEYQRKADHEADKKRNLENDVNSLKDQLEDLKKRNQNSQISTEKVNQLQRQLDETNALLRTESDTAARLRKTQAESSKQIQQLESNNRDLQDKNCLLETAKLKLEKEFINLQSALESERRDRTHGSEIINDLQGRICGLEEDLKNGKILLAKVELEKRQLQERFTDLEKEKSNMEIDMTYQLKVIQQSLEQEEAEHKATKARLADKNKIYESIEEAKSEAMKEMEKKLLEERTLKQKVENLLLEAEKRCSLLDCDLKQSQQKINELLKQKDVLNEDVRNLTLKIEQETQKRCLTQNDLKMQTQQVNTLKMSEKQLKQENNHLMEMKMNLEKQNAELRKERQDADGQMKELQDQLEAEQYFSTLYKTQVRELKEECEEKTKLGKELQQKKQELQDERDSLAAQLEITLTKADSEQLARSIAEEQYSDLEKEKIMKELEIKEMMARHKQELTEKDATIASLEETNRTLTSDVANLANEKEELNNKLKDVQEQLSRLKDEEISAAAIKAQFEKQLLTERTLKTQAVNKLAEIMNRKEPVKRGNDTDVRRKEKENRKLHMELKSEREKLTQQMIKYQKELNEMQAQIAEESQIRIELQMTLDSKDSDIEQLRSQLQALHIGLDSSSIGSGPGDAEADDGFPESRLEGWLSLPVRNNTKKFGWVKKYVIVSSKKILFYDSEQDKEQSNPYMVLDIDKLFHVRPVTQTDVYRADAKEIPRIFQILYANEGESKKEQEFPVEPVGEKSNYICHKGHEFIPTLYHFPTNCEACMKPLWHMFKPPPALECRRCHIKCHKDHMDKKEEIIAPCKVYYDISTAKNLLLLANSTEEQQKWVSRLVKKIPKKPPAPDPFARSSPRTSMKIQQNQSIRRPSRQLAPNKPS
# UniProt P57058, sequence (whole entry, looked up): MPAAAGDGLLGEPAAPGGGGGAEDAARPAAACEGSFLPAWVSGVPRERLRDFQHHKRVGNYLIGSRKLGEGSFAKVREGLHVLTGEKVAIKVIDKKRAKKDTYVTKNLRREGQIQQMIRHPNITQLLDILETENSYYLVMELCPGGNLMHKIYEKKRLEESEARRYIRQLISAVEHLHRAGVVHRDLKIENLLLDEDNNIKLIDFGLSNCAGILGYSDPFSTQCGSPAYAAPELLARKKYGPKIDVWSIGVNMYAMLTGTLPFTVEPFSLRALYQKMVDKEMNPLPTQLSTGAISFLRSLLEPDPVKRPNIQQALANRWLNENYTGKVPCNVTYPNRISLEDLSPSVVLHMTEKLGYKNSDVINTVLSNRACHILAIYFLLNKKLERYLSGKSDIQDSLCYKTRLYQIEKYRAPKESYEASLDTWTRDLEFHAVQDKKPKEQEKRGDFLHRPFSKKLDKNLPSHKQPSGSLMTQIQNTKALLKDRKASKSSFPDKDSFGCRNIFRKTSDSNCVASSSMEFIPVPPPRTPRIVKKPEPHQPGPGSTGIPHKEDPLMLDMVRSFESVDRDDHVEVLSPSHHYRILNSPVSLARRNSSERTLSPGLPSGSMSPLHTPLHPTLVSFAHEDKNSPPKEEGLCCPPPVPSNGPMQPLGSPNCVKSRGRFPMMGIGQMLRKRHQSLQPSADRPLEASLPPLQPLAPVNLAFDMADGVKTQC
# UniProt P07711, sequence (whole entry, looked up): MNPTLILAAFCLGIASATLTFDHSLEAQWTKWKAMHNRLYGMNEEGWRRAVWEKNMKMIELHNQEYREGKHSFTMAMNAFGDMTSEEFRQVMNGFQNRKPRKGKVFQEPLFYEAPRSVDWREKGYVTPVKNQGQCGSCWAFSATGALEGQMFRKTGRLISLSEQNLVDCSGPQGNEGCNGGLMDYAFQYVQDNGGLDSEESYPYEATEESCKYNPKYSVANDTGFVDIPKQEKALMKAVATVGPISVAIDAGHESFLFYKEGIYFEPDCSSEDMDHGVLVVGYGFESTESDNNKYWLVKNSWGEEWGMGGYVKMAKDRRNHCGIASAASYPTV
SMILES,target or system,test,test system,setting,measurement,result
C1=C/COCc2cc(ccc2OCCN2CCCC2)Nc2nccc(n2)-c2cccc(c2)COC/1,"EGFR (Homo sapiens, UniProt P00533, del752-759)",binding,,0.1 µM,remaining binding,92%
O=C(CC(O)(CC(=O)OCc1ccc(OC2OC(CO)C(O)C(O)C2O)cc1)C(=O)OCc1ccc(OC2OC(CO)C(O)C(O)C2O)cc1)OCc1ccc(OC2OC(CO)C(O)C(O)C2O)cc1 (centres unmarked),"Procathepsin L (CTSL, Homo sapiens, UniProt P07711)","enzyme activity, inhibitor",,100 µM,remaining activity,102%
CCCCC(=O)Nc1ccc(-c2ccc3ncn(CCC)c(=O)c3c2)cn1,"TLK1 (Homo sapiens, UniProt Q9UKI8)","binding, competition with immobilised ligand",,0.5 µM,remaining binding,90%
Cc1ccc(N(O)N=Nc2ccc(S(=O)(=O)Nc3onc(C)c3C)cc2)cc1,,ABTS scavenging,,180 µg/mL,inhibition,84.9%
Cc1cc([C@@H](C)Nc2ccccc2C(=O)O)c2nc(N3CCC(F)(F)CC3)c(C#N)c(=O)n2c1,"ERBB4 (Homo sapiens, UniProt Q15303)","binding, competition with immobilised ligand",,1 µM,remaining binding,95%
C=CC(=O)N1CCC(COCC(=O)N2CCN(c3nc(-c4cnc(N)nc4C(F)F)nc(N4CCOC[C@@H]4C)n3)CC2)CC1,"MAPK12 (Homo sapiens, UniProt P53778)","binding, competition with immobilised ligand",,1 µM,remaining binding,99%
Cc1ccc(N(O)N=Nc2ccc(S(=O)(=O)Nc3cc(C)on3)cc2)cc1,,ABTS scavenging,,240 µg/mL,inhibition,46.8%
COc1cccc(-c2n[nH]c(SCc3ccccn3)n2)c1OC,,,"male Sprague-Dawley rat, plasma","oral, 30 mg/kg, 30 min, single dose",concentration,50.5 µg/mL
Nc1ncnc2occ(-c3ccc(NC(=O)Nc4cc(C(F)(F)F)ccc4F)cc3)c12,"HUNK (Homo sapiens, UniProt P57058)","cell-free assay, inhibitor",,20 µM,remaining signal,1.4%
COc1cc(-c2cncc3c2CN(C)Cc2cc(N4CCNCC4)ccc2-3)cc(OC)c1OC,"ROCK2 (Homo sapiens, UniProt O75116)","enzyme activity, inhibitor",,1 µM,remaining activity,104%
CNc1ncc2c(/C=C/C(=O)N3CCC(OC)CC3)nn(Cc3cccc(C(F)(F)F)c3)c2n1,"MINK1 (Homo sapiens, UniProt Q8N4C8)","enzyme activity, inhibitor, radiometric",,1 µM,remaining activity,85%

# Some of these lines once more:
SMILES,target or system,test,test system,setting,measurement,result
C1=C/COCc2cc(ccc2OCCN2CCCC2)Nc2nccc(n2)-c2cccc(c2)COC/1,"EGFR (Homo sapiens, UniProt P00533, del752-759)",binding,,0.1 µM,remaining binding,92%
